Literature values as cited in several papers.
Each line is one published result; not all experiments were run side by side. Numbers after ± are the reported error. Values after ≈ are worked out from the molar mass of the structure shown.

SMILES	target or system	assay	test system	setting	scale	endpoint	result
COc1ccccc1Oc1cccc(CN2CCC(NC(=O)C(CCN3CCCC3)c3ccccc3)CC2)c1 (centres unmarked)	human CCR8 S262A mutant (TM6)	IP accumulation, agonist				EC50	40 nM
Cc1[nH]c(C)c([N+](=O)[O-])c(=O)c1-c1ccc(Oc2ccc(OC(F)(F)F)cc2)cc1	Plasmodium falciparum	whole cell extended time	3D7	72 h		IC50	250 nM
COC(=O)C1=C(C)NC(C)=C(C(=O)OC)C1c1c(-c2cc(OC)c(OC)c(OC)c2)nc2sc(Cl)cn12			guinea pig right atrium	5 µM, spontaneously beating	baseline: control	decrease in atrial rate	25 ± 1.5%
C[C@H]1COCCN1c1nc(-c2cnc(N)cc2C(F)F)nc(N2CCOCC2)n1	LNCaP FGC cells	cell growth				GI50	356 nM
COc1ccccc1Oc1cccc(CN2CCC3(CC2)C(=O)NCN3CCc2ccccc2)c1	human CCR8 L168D mutant (TM4)	IP accumulation, agonist				EC50	18 nM
Cc1[nH]c(C)c(-c2ccc(CCc3ccc(F)cc3F)cc2)c(=O)c1Cl	Plasmodium falciparum	whole cell extended time	3D7	72 h		IC50	20 nM
COC(=O)C1=C(C)NC(C)=C(C(=O)OC)C1c1c(Cl)nc2sc(C)c(C)n12			guinea pig left atrium	5x1.000e-06 M		decrease in contractile force	73 ± 3.4%
O=C(Nc1nc2ccccc2[nH]1)c1ccccc1	SUMO/sentrin specific protease 8			12.5 µM, PubChem AID 488912		response	83%
CCNS(=O)(=O)c1ccc(OC)cc1C1(O)CCN(Cc2cccc(Oc3ccccc3OC)c2)CC1	human CCR8 W251Q mutant (TM6)	IP accumulation, agonist				EC50	80 nM
CSc1ccc(C=CC(=O)NC(=O)c2ccccc2O)cc1	Plasmodium falciparum	whole cell extended time	3D7	72 h		IC50	290 nM
COC(=O)C1=C(C)NC(C)=C(C(=O)OC)C1c1c(-c2ccc(OC)c(OC)c2)nc2sccn12		negative inotropic effect	guinea pig, isolated left atrium			EC50	2640 nM
Cc1cc2nc(-c3ccc(C(=O)NC4CCN(Cc5ccccc5)CC4)s3)[nH]c2cc1C	Plasmodium falciparum	whole cell extended time	3D7	72 h		IC50	770 nM
c1cc(-c2cnn3cc(-c4ccc(OCCN5CCCCC5)cc4)cnc23)ccn1	CSNK1E	kinase activity, inhibitor		0.5 µM		inhibition	48%
COc1ccccc1Oc1cccc(CN2CCC(NC(=O)C3CC(=O)Nc4ccccc43)CC2)c1 (centres unmarked)	human CCR8 K193A mutant (TM5)	IP accumulation, agonist				EC50	32 nM
CCc1cn2c(C3C(C(=O)OC)=C(C)NC(C)=C3C(=O)OC)c(-c3cc(OC)ccc3OC)nc2s1		decrease in atrial rate	guinea pig right atrium			EC50	1590 nM
Cc1c(C#N)cccc1[C@@H](C)Nc1nnc(C)c2cnc(N3CCOCC3)cc12	LN-229	3D cell viability		14 d		IC50	65 ± 18.2 nM

SMILES	target or system	assay	test system	setting	scale	endpoint	result
COc1ccccc1Oc1cccc(CN2CCC(O)(c3ccccc3C(=O)O)CC2)c1	human CCR8 K193A mutant (TM5)	IP accumulation, agonist				EC50	12 nM
COC(=O)C1=C(C)NC(C)=C(C(=O)OC)C1c1c(Cl)nc2sc(C)cn12		negative inotropic effect	guinea pig, isolated left atrium			EC50	56 nM
CC1(C)S[C@@H]2[C@H](NC(=O)[C@H](N)c3ccccc3)C(=O)N2[C@H]1C(=O)O	Klebsiella pneumoniae		clinical isolate RKI-No_229/15			MIC	> 16 µg/mL
Nc1cc(C(F)(F)F)c(-c2nc(N3CCOCC3)nc(N3CCOCC3)n2)cn1	Jurkat E6-1					GI50	720 nM
Cc1[nH]c(C)c(-c2ccc(-c3ccc(OC(F)(F)F)cc3)nc2)c(=O)c1Cl	Plasmodium falciparum	whole cell extended time	3D7	72 h		IC50	200 nM
CCN(c1cc(-c2ccc(CN3CCOCC3)cc2)cc(C(=O)NCc2c(C)cc(C)[nH]c2=O)c1C)C1CCOCC1			relapsed/refractory DLBCL, EZH2 wild-type	dose not given		overall response rate	15%
Oc1ccc(-c2nc(-c3ccncc3)c(-c3ccc(F)cc3)[nH]2)cc1	CSNK1E	kinase activity, inhibitor		0.5 µM		inhibition	67%
COC(=O)C1=C(C)NC(C)=C(C(=O)OC)C1c1c(-c2cc(OC)ccc2OC)nc2sc(Cl)cn12		decrease in atrial rate	guinea pig right atrium			EC50	980 nM
CCCCCCCc1[nH]c2ccccc2c(=O)c1C	Plasmodium falciparum	whole cell extended time	3D7	72 h		IC50	510 nM
CNC(C)C1CCC(N)C(OC2C(N)CC(N)C(OC3OCC(C)(O)C(NC)C3O)C2O)O1 (centres unmarked)	Pseudomonas aeruginosa		clinical isolate RKI-No_47/09			MIC	8 µg/mL (≈ 16.8 µM)
COc1c(C)[nH]c(C)c(-c2ccc(Oc3cccc(C(F)(F)F)c3)cc2)c1=O	Plasmodium falciparum	whole cell extended time	3D7	72 h		IC50	310 nM
COC(=O)C1=C(C)NC(C)=C(C(=O)OC)C1c1c(-c2cc(OC)ccc2OC)nc2sc(C)cn12			guinea pig left atrium	50 µM, paced at 1 Hz	baseline: control	decrease in developed tension	78 ± 0.9%
Nc1cccc2c1C(=O)N(C1CCC(=O)NC1=O)C2=O (centres unmarked)			relapsed refractory multiple myeloma patients	dose not given, phase II, sample A patients, added: low-dose dexamethasone		median progression-free survival	4.2 months
Cc1cc(=O)c(-c2ccc(OCc3ccc(OC(F)(F)F)cc3)cc2)c(C)[nH]1	Plasmodium falciparum	whole cell extended time	3D7	72 h		IC50	740 nM
COC(=O)C1=C(C)NC(C)=C(C(=O)OC)C1c1c(-c2cccc(OC(F)(F)F)c2)nc2sccn12			guinea pig left atrium	50 µM, paced at 1 Hz	baseline: control	decrease in developed tension	86 ± 0.7%
O=C1NC(=O)c2c1c1c3ccccc3[nH]c1n1cncc21	CSNK1G1	kinase activity, inhibitor		0.5 µM		inhibition	32%
